Experimental data pooled from the literature.
Parts stem from different laboratories: compare values within a part only. Substitutions count along the parent as printed.

Block 1
Target: ABI1, truncated, D143A, DHFR fusion (Arabidopsis thaliana)
Method: DHFR PCA, deep sequencing
Matrix: yeast
Notes: methotrexate growth selection, single substitutions
With: (+)-ABA 0.11 µM
Reference: wild-type fitted maximum
Direction: higher = stronger binding
Starting sequence: PYL1, truncated, DHFR fusion (Arabidopsis thaliana); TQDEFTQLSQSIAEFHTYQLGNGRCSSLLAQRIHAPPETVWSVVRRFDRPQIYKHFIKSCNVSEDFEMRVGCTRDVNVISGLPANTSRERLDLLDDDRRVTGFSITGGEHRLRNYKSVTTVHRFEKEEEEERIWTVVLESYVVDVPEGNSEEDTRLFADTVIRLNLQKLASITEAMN
Change | relative binding score
S26K | 0.0802%
N149Q | 51%
A35C | 6.24%
Q7K | 28.8%
L169C | 1.94%
M68C | 11.6%
I162K | 5.79%
V137T | -2.5%
L164K | 3.54%
S27A | 6.91%
E128I | 9.28%
N177F | 39.9%
E64P | 52.6%

Block 2
Target: Centromere-binding protein 1, full length, His-tagged (CBF1, Saccharomyces cerevisiae, UniProt P17106, residues 1-351)
Chain of UniProt P17106 (whole entry, looked up): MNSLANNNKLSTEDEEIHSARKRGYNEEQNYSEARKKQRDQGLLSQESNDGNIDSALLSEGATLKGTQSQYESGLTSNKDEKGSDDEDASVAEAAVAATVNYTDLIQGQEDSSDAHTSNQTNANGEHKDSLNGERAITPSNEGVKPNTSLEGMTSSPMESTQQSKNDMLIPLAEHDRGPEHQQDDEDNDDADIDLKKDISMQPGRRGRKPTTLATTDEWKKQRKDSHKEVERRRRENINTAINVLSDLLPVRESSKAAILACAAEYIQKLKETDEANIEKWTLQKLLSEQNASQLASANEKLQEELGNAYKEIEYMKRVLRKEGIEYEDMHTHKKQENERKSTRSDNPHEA
Method: competition protein-binding microarray
Molecule type: double-stranded DNA, one strand shown
Matrix: in vitro
Tested at: 2 µM
Notes: whole 60-bp probe, lowest competitor level
With: Pho4 competitor, 0.05 µM
Direction: higher = stronger binding
Sequence | fluorescence intensity
TCGCAATATGAATATCACAGAAAAATTAGAGCAACAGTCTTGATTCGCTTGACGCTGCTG | 90.4 a.u.
CTCAACATGGCAGAAGATGTGACGAATCTTATGCTTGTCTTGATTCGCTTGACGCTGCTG | 69.8 a.u.
CATACCCAACCTTTTCACGTGAGGTAAGATATTTGTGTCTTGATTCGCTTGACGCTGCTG | 1220 a.u.
CGGGGTTAAGTTTGTACTGTGGGTGGCTTGCAGCAGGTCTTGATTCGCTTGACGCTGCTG | 82.5 a.u.
CGTCCTAGCGATTGAGTCGTGGGTGCCATGAGGAAGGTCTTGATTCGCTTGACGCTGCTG | 74.3 a.u.
TCTGATCTTGTGTTCCACGTGCCTGTGGTGGCTTTAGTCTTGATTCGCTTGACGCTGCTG | 883 a.u.
CATACCCAACCTTGTCACTGGACTTAAGATATTTGTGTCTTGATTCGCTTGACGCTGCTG | 108 a.u.
GTCTTGTCTCATTGGTTTGTGGGTGTCCCCACTTCAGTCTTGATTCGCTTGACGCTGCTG | 76.6 a.u.
AAATTACTAAGTTGTCGAGTGGGTGACGCCGTATGAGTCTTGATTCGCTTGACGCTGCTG | 76.5 a.u.
TGCGCAACAACTTGCATTGTGGGTGTATGTCTAGAAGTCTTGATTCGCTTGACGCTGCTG | 67.5 a.u.
CTGGGAAAACATCACCACGTCTCAAAGAACCTGCAAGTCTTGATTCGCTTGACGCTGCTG | 59.8 a.u.
CTTCTGTAAATTTGCTGCGTGGGTGGACGCGCCCCGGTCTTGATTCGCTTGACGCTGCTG | 80.2 a.u.
TGCGCAACAACTTGTCACAGCACTTTATGTCTAGAAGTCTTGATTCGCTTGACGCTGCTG | 79.5 a.u.
TGCCCTTGCGCCTGGCACGTTTCAGCTTCTTTCTAAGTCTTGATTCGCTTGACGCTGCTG | 101 a.u.

Block 3
Target: Ras GTPase-activating protein-binding protein 1, RRM domain (G3BP1, Homo sapiens, UniProt Q13283)
Chain of UniProt Q13283 (whole entry, looked up): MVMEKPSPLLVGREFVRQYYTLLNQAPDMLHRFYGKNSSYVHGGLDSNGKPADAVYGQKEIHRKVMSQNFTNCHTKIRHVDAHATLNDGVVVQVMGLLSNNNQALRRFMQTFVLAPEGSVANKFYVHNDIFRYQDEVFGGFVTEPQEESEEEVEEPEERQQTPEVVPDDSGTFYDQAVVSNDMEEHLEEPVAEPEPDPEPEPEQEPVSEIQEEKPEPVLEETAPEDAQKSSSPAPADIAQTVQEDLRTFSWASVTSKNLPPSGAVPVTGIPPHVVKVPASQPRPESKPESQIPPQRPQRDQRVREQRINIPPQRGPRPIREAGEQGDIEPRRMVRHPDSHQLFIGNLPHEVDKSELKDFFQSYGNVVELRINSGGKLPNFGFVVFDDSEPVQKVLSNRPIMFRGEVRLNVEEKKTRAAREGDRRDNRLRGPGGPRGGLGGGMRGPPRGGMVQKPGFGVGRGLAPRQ
Method: RNA Bind-n-Seq
Molecule type: RNA
Matrix: in vitro
Tested at: 1 µM
Notes: whole 134-nt RNA, ends assumed
With: 150 mM KCl
Reference: input library
Direction: higher = stronger binding
Sequence | log2 enrichment
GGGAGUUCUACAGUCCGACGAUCUAACUUUAGAGGAGGAUCUGAUGGAUAUGGCAGUGGACGUCGAUUUGGGGAUGGCUAUAAUGGGUAUGGAGGAGGACCUGGAGGUGGCAAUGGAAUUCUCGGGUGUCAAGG | -0.321
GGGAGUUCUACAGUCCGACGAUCUGGGAGGUGGAUUUUGUUUAUUUUUUUAGCUCAUUACCAGGGGUGGGAAUUUUUUUUUAAUAUGUGUCAUGAAUAAAGUUGUUUUUGAAAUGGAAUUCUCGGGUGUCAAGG | 2.07
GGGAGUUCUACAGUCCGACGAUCCCUGUGCUACACAUCGUAUGUACCGAAUCGGGGUUUGGGGAAAAAGGGGAAAAAAAGGGGAAAGUAUUAUGUUACGCCGUUCGGAUCUGCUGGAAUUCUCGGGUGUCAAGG | 0.81
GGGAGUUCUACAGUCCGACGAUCACCAUGCAGGUGGGCAUCUUUGGGAAGUGGGGCAAGGGGGGAAAAGGGAGGGGGGUAACACUUUGGGAACAGGUGGUCCCAGGUCGUUUCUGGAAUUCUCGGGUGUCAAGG | -0.25
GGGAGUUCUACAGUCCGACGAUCUGGGAGGUGGAUUUUGUUUAUUUUUUUAGCUCAUUUCCAGGGGUGGGAAUUUUUUUUUAUUAUGUGUCAUGAAUAAAGUUGUUUUUGAAAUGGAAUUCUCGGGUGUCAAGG | 1.77
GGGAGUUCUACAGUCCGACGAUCUCCUGUGCUACACAUCGUAUGUACCGAAUCGGGAAAAAAGGAAAAAAGGGAAAAAAGGGGAAAGUAUUAUGUUACGCCGUUCGGAUCUGCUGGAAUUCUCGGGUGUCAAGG | -0.0398
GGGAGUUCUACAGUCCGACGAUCGUCCUGUGCUACACAUCGUAUGUACCGAAUCGGAAAAAGGGAAAAAGGGAAAAAGGGGAAAGUAUUAUGUUACGCCGUUCGGAUCUGCACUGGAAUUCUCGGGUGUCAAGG | 0.0713
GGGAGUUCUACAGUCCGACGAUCUGGGAGGUGGAUUUUGUUUAUUUUUUUAGCUCAUUUCCAGGGGUGGGAACUUUUUUUUAAUAUGUGUCAUGAAUAAAGUUGUUUUUGAAAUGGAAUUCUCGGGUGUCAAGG | 1.76
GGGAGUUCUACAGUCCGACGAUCCUCAAGUCCUGUGCUACACAUCGUAUGUACCGAAUCGGAAAGGUUUGGAAAGGAAAGUAUUAUGUUACGCCGUUCGGAUCUGCACUUCCAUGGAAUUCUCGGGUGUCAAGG | -0.237

Block 4
Target: CCNA1, cyclin fold, Cln2 fusion (human)
Method: yeast growth competition, sequencing
Matrix: yeast
Notes: weak parent motif
Reference: not given
Direction: higher = stronger binding
Starting sequence: GMNC docking peptide (human); KNAKRNLSSEFAN
Change | normalised enrichment score
KGAKRNLSSEFAN [N2G] | 0.742
KNACRNLSSEFAN [K4C] | 0.261
KNAKRNLSSEFVN [A12V] | 0.187
KQAKRNLSSEFAN [N2Q] | 0.668
KNAKRNKSSEFAN [L7K] | 0.215
KNPKRNLSSEFAN [A3P] | -0.723
KNAKRNLSSEFKN [A12K] | 0.0827
KNAKQNLSSEFAN [R5Q] | 0.152
KNWKRNLSSEFAN [A3W] | 0.432
KNAKRNLSSWFAN [E10W] | 0.88
KNAKRPLSSEFAN [N6P] | 0.112
KNTKRNLSSEFAN [A3T] | 0.606
KYAKRNLSSEFAN [N2Y] | 0.474
KNAKYNLSSEFAN [R5Y] | 0.244
KNAKRCLSSEFAN [N6C] | 0.336
KNHKRNLSSEFAN [A3H] | 0.308
KNGKRNLSSEFAN [A3G] | 0.573
KNAKRNLSSEIAN [F11I] | 0.0781
KNAKRYLSSEFAN [N6Y] | -0.292
KNAKRNLSSEEAN [F11E] | 0.316
KNAKENLSSEFAN [R5E] | 0.0461
